Results from different studies.
Each numbered part is a random draw from the data of one study; scales do not carry over between parts. Substitutions count along the parent as printed.

Series 1
Target: ABI1, truncated, D143A, DHFR fusion (Arabidopsis thaliana)
Technique: DHFR PCA, deep sequencing
Medium: yeast
Setting: methotrexate growth selection, single substitutions
Together with: (+)-ABA 0.032 µM
Relative to: wild-type fitted maximum
Direction: higher = stronger binding
Starting sequence: PYL1, truncated, DHFR fusion (Arabidopsis thaliana); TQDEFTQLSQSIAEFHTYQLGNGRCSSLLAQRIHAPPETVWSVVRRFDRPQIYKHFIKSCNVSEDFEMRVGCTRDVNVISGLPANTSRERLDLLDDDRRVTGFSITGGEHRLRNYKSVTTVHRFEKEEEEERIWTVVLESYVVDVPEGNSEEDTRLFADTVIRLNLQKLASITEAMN
`T135N` — result for “relative binding score”: -5.07%.
Under “relative binding score”, `G81C` is recorded as 12.5%.
`G81L` — result for “relative binding score”: 6.05%.
`S117Y` — result for “relative binding score”: -2.62%.
For `V43L`, “relative binding score” read 15.7%.
`S11I` — result for “relative binding score”: 25.3%.
`G102Y` — result for “relative binding score”: -7.54%.
`Q7P` — result for “relative binding score”: 4.5%.
`D65R` — result for “relative binding score”: 3.79%.
`I162L` — result for “relative binding score”: 3.58%.
`F5H`: “relative binding score” 6.69%.
`N114K` — result for “relative binding score”: -4.17%.
Under “relative binding score”, `I79K` is recorded as 6.63%.
`G71I` — result for “relative binding score”: 5.07%.
For `R98C`, “relative binding score” read -0.421%.
`I57Q`: “relative binding score” -7.84%.
`Q31D` — result for “relative binding score”: 2.77%.
`G71P` — result for “relative binding score”: 6.98%.
`D97A`: “relative binding score” 28.5%.
Under “relative binding score”, `E131K` is recorded as 55.8%.
`T106V` — result for “relative binding score”: 75%.
`R69T`: “relative binding score” 24.2%.
Under “relative binding score”, `S59W` is recorded as 2.71%.
`E125N`: “relative binding score” 24.6%.

Series 2
Target: RNA binding protein fox-1 homolog 2, RRM domain, GST-SBP tag (RBFOX2, Homo sapiens, UniProt O43251-10, residues 100-194)
Technique: RNA Bind-n-Seq
Molecule type: RNA
Medium: in vitro
Concentration: 365 nM
Setting: natural RNA segment, single round, ends assumed
Relative to: no-protein control
Direction: higher = stronger binding
Construct (chain): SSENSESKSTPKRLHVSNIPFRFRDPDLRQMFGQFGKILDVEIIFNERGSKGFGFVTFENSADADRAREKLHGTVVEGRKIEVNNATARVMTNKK
`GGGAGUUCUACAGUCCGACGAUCCUGGAAGUGGUGUGUUCACAUACAGUGACCCUUGGCCACCAGACCACAGAGGAUGGAGCCUGGGAAGCAGCGAGGAAAUCACAGCCCCCUCGCCCCUGCCUCCCUUGCCCUGGAAUUCUCGGGUGCCAA` — result for “RBNS enrichment (R)”: 0.297.
For `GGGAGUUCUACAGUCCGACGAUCCUGCCUUGGUUCCUACCACUCUGGUGUAGACAGAGGACUUUGUCCAAGUCUCACACUAAACAUGCCCGGGCUUCGAUGUGCCUGGAGGAUUUCCCCACAGGGACCCACGCUGGAAUUCUCGGGUGCCAA`, “RBNS enrichment (R)” read 0.285.
`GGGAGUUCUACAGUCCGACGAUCUCUCACUACUGAGCACCGAUGUGUAUGAUACUACAGACUAUAUUAAAGUGGAGUAACAUUUCUUUCAUCUUUGUUUACACUCUCACUAGGACUCUGAACCAUGAUUGGAAUGGAAUUCUCGGGUGCCAA`: “RBNS enrichment (R)” 0.33.
Under “RBNS enrichment (R)”, `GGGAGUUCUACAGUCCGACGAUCUUCAAAAGUGUGAAAUGUCUGAAGAUCAUAUUUUUUAUACAGGUAUUUCAAUUAAAUGUUUUGGUAUAUAAUGGAUAACUUCUGUUUAUUGGACUGGGGCCCUGGGUAGUUGGAAUUCUCGGGUGCCAA` is recorded as 0.912.
`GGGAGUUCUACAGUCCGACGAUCGGGAAGGUCUCCCACAUUAUGCAAUAAUAAAAUAAGCAUCUGGGUCUUUGCAGCUGUCAGUUGCUCUUUCAACUCUAGGAUCCAUCUUUGGACCAGAAGCCUGGUCUGUGUGGAAUUCUCGGGUGCCAA`: “RBNS enrichment (R)” 0.277.
`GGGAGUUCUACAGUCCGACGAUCAAACCCAGCUCCCUUCUUCCCUAGCCUGGUGCUUCUCCUCUCCUAGCCCCUGUCAUGGUGUCCAGACAGAGCCCUGUGAGGCUGGGUCCAAUUGUGGCACUUGGGGCACCUGGAAUUCUCGGGUGCCAA` — result for “RBNS enrichment (R)”: 0.558.
Under “RBNS enrichment (R)”, `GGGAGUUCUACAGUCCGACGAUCAUAAACUGAAAUGCACAUAGCCAAGUCUUGACAUUACAAGAUUGUGUAUUUCUUAAAAUACAACUUUGUGUUGUACUUUGAAAUAAAUGAUGCUUUUUUUCAAAAGCCUUUGGAAUUCUCGGGUGCCAA` is recorded as 0.33.
For `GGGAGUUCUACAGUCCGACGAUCCCCCAACGCGUCCUCUCACACCGUCCACUGUGCGUUUGUAUGUGUCUGGGAUCCAGGGCAAUGUGAAUUUUCUUUUUAUUUGGGAGAUUGUUCACGGAAAACAGAUCUUCUGGAAUUCUCGGGUGCCAA`, “RBNS enrichment (R)” read 0.267.

Series 3
Target: CCND3, cyclin fold, Cln2 fusion (human)
Technique: yeast growth competition, sequencing
Medium: yeast
Setting: weak parent motif
Relative to: not given
Direction: higher = stronger binding
Starting sequence: PKN2 docking peptide (human); VSAVRKLDFSDTM; partner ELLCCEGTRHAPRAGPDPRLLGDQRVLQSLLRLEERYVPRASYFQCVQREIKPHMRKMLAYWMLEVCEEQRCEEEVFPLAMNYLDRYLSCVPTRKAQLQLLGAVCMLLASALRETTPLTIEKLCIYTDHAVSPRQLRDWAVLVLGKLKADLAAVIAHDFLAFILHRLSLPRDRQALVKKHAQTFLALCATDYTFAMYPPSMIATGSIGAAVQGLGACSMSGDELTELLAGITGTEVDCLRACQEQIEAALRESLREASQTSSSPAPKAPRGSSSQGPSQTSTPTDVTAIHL
`S2Y`: “normalised enrichment score” 0.294.
`D8C`: “normalised enrichment score” 0.441.
Under “normalised enrichment score”, `F9S` is recorded as 0.198.
`D8V` — result for “normalised enrichment score”: 0.445.
For `A3H`, “normalised enrichment score” read -0.143.
`S2N` — result for “normalised enrichment score”: 0.519.
For `F9L`, “normalised enrichment score” read -0.11.
Under “normalised enrichment score”, `T12S` is recorded as 1.16.
Under “normalised enrichment score”, `L7F` is recorded as 0.0334.
`T12L`: “normalised enrichment score” 0.525.
For `S10F`, “normalised enrichment score” read 0.157.
`L7M` — result for “normalised enrichment score”: 0.0694.
For `K6W`, “normalised enrichment score” read 0.579.
For `S10L`, “normalised enrichment score” read 0.665.
`F9Y`: “normalised enrichment score” 0.0796.
`S2K` — result for “normalised enrichment score”: 0.567.
`D8I` — result for “normalised enrichment score”: 0.433.
`D11C` — result for “normalised enrichment score”: 0.579.
For `D11G`, “normalised enrichment score” read 0.494.
For `R5C`, “normalised enrichment score” read 0.398.
For `S2D`, “normalised enrichment score” read 0.121.

Series 4
Target: Prothrombin, mature alpha-thrombin (F2, Homo sapiens, UniProt P00734)
Technique: aptamer microarray, sandwich
Molecule type: DNA with 2'F-ANA
Medium: in vitro
Concentration: 200 nM
Setting: whole 15-mer aptamer, many near background
Together with: Cy3 exosite-II aptamer, 400 nM
Direction: higher = stronger binding
Oligonucleotide: GGTTGGTGTGGTTGG
Under “mean fluorescence intensity”, `2'F-ANA at 2 5 6 9 12 13` is recorded as 93.6 a.u.
Under “mean fluorescence intensity”, `2'F-ANA at 4 5 7 8 11 12 14 15` is recorded as 50.9 a.u.
`2'F-ANA at 4 5 7 8 11 13 14` — result for “mean fluorescence intensity”: 43.3 a.u.
For `2'F-ANA at 1 3 5 6 7 11 12 15`, “mean fluorescence intensity” read 98.9 a.u.
Under “mean fluorescence intensity”, `2'F-ANA at 1 2 3 9 12 13 14` is recorded as 80.8 a.u.
`2'F-ANA at 1 6 7 8 9 11 13` — result for “mean fluorescence intensity”: 152 a.u.
Under “mean fluorescence intensity”, `2'F-ANA at 2 3 5 9 11 13` is recorded as 73.2 a.u.
For `2'F-ANA at 2 5 7 9 12 13 14`, “mean fluorescence intensity” read 88.4 a.u.
Under “mean fluorescence intensity”, `2'F-ANA at 3 4 5 6 8 12 13 14 15` is recorded as 54 a.u.
Under “mean fluorescence intensity”, `2'F-ANA at 2 7 8 12 14 15` is recorded as 260 a.u.
`2'F-ANA at 2 3 4 6 9 11` — result for “mean fluorescence intensity”: 488 a.u.
For `2'F-ANA at 2 7 8 9 10 11`, “mean fluorescence intensity” read 128 a.u.
`2'F-ANA at 3 4 5 7 9 10 13 14 15` — result for “mean fluorescence intensity”: 53.8 a.u.
For `2'F-ANA at 1 2 5 9 10 11 12 13 15`, “mean fluorescence intensity” read 51.1 a.u.
`2'F-ANA at 5 6 8 10 11 12 13 15` — result for “mean fluorescence intensity”: 48.5 a.u.
`2'F-ANA at 2 3 4 6 10 13 15`: “mean fluorescence intensity” 178 a.u.

Series 5
Target: Histone acetyltransferase KAT6A, winged helix 1, GST fusion (KAT6A, Homo sapiens, UniProt Q92794, residues 1-85)
Technique: protein binding microarray
Molecule type: double-stranded DNA, one strand shown
Medium: in vitro
Concentration: not given
Setting: 8-mer, flanks averaged, mean of 2 arrays, mostly near background
Relative to: not given
Direction: higher = stronger binding
Residues (chain): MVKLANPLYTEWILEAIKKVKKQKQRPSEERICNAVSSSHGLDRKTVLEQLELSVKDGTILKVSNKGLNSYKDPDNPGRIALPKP
`CCAGTTTA` has an E-score of -0.172.
For `CTCTCACC`, the E-score was -0.0903.
For `ACCAGTTG`, the E-score was -0.231.
`CGTTCTCC` gave an E-score of -0.138.
The E-score of `ATGTAACG` is reported as 0.0563.
`GGATTGCA` has an E-score of -0.00137.
`CTGGTGCA` gave an E-score of -0.158.
`AGGCGTCG` has an E-score of 0.208.
`ATGCGCTC` has an E-score of 0.239.
With `CTCCAGAG` the E-score was -0.0631.
The E-score of `GCCCACCA` is reported as -0.253.
With `CAAAGGAA` the E-score was -0.177.
For `GTAACCCA`, the E-score was 0.0337.
`AGCAGCAG` gave an E-score of -0.223.
`CACGTAAC` has an E-score of 0.00841.
`AGCGGTTA` gave an E-score of 0.13.
`AGCAGTGG` gave an E-score of -0.0795.
For `ACCACTAC`, the E-score was -0.116.
`CGACAACA` has an E-score of -0.00862.
The E-score of `AGCGGTGA` is reported as 0.16.
For `CAGAGTGA`, the E-score was -0.233.
For `AGGGCGCC`, the E-score was 0.232.
With `TACACCAA` the E-score was -0.249.
For `AGTATCTG`, the E-score was -0.171.
With `GCCAGCGC` the E-score was 0.313.

For quick reference, copied from above (series 5):
The E-score of `GCCCACCA` is reported as -0.253.
With `CTCCAGAG` the E-score was -0.0631.
`CTGGTGCA` gave an E-score of -0.158.
`CACGTAAC` has an E-score of 0.00841.
For `AGGGCGCC`, the E-score was 0.232.
For `CTCTCACC`, the E-score was -0.0903.
`AGCAGCAG` gave an E-score of -0.223.
The E-score of `ATGTAACG` is reported as 0.0563.
The E-score of `AGCGGTGA` is reported as 0.16.
For `AGTATCTG`, the E-score was -0.171.
